Assay results pooled from the literature.
Compare with care: the assays were run in different laboratories. Numbers after ± are the reported error.

SMILES | test | system | setting | half-life [h]
OCc1ncc2n1-c1ccc(Cl)cc1C(c1ccccc1F)=NC2 | – | humans, plasma | 3 mg of midazolam, midazolam alone | 5.4
CCN(CC)C(=O)[C@@H]1C=C2c3cccc4[nH]cc(c34)C[C@H]2N(C)C1 | – | human, plasma | dose not given, after placebo pretreatment | 3.6
Cn1ncc(-c2nc(N[C@H]3CC[C@H](N)CC3)ncc2Cl)c1CC1CC1 | – | human patients | oral, 42 mg, day 5 | 21
C[C@]1(CO)Cc2ncn(-c3ccc(C#N)c(Cl)c3)c2C(=O)O1 | – | human, plasma | 10 mg single dose, geometric mean | 5.9
COc1ccc2c(c1)[C@]13CCCC[C@@H]1[C@H](C2)N(C)CC3 | – | human female | 30 mg, day 0 | 15.8 ± 3.19
CC(=O)c1c(C)c2cnc(Nc3ccc(C4CCN(CCS(C)(=O)=O)CC4)cn3)nc2n(C2CCCC2)c1=O | – | human, plasma | oral, 75 mg twice daily, day 1, single dose, with: letrozole | 6.67
O=c1ccc2ncc(=O)n3c2n1C[C@H]3CN1CCC(NCc2cc3c(cn2)OCCC3)CC1 | – | healthy human volunteers, plasma | oral, 1500 mg single dose, arithmetic mean, alone | 11.2
CCCCCCCCCCC(=O)O[C@H]1CC[C@H]2[C@@H]3CCC4=CC(=O)CC[C@]4(C)[C@H]3CC[C@]12C | measured: testosterone | human, plasma | oral, 237 mg testosterone undecanoate, geometric mean | 9.1
C[C@H](NC(=O)c1c(C(F)F)nn(C)c1Oc1cccc(C(F)(F)F)c1)c1ccc(C(=O)O)cc1 | – | human, plasma | 250 mg, cycle 1 day 8, mean | 8.9
Cn1nc(NS(C)(=O)=O)c2c(Cl)ccc(-n3c([C@H](Cc4cc(F)cc(F)c4)NC(=O)Cn4nc(C(F)F)c5c4C(F)(F)[C@@H]4C[C@H]54)nc4nc(OCCC(F)(F)F)ccc4c3=O)c21 | – | human, plasma | oral, 200 mg single dose, tablet, geometric mean | 64.2
C[C@@H]1CC[C@H]2[C@@H](C)C(=O)O[C@@H]3O[C@@]4(C)CC[C@@H]1[C@]32OO4 | – | human, male, plasma | oral, dose not given, day 2 | 1.5 ± 0.7
OCc1ncc2n1-c1ccc(Cl)cc1C(c1ccccc1F)=NC2 | – | human, plasma | 7.5 mg midazolam, day 19, arithmetic mean, metabolite of midazolam, with: midazolam 7.5 mg alone | 3.7
C[C@@](Cc1ccc(O)c(O)c1)(NN)C(=O)O | measured: levodopa | healthy human volunteers, plasma | subcutaneous, 24 h infusion, harmonic mean, crossover | 2.97

A few entries again:
SMILES | test | system | setting | half-life [h]
C[C@]1(CO)Cc2ncn(-c3ccc(C#N)c(Cl)c3)c2C(=O)O1 | – | human, plasma | 10 mg single dose, geometric mean | 5.9
COc1ccc2c(c1)[C@]13CCCC[C@@H]1[C@H](C2)N(C)CC3 | – | human female | 30 mg, day 0 | 15.8 ± 3.19
